# Published values from different studies.
# Each numbered part is a random draw from the data of one study; scales do not carry over between parts.

# Set 1
# Target: Histone acetyltransferase KAT6A, winged helix 2, GST fusion (KAT6A, Homo sapiens, UniProt Q92794, residues 85-181)
# Method: protein binding microarray
# Molecule type: double-stranded DNA, one strand shown
# Sample: in vitro
# Tested at: not given
# Notes: 8-mer, flanks averaged, mean of 2 arrays, mostly near background
# Reference: not given
# Reading: higher = stronger binding
# Construct (chain): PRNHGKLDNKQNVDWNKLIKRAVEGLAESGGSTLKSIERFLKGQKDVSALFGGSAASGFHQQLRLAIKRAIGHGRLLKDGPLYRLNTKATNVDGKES
Strand,E-score
CTGATATA,0.0588
CAGGTCTC,-0.117
AAGTCAGG,0.0754
GACTCCGC,-0.0163
CTCATAGA,-0.0418
CAGCCTAG,0.0799
GGGTCATA,-0.0242
CATTTATC,-0.0383
AGATCTGA,-0.137
AGATTTAC,0.078
AGACCGAG,0.0278
AAGCTGCA,0.0415
AGGTCTAG,-0.108
CCGCCACA,0.0387
GGCCAGCC,0.137
ATTTGGTG,0.0041
AAAAGTAG,-0.0972
CTAATAAG,0.0488
CATAGGAC,-0.187

# Set 2
# Target: Ras GTPase-activating protein-binding protein 1, RRM domain (G3BP1, Homo sapiens, UniProt Q13283)
# Sequence of UniProt Q13283 (whole entry, looked up): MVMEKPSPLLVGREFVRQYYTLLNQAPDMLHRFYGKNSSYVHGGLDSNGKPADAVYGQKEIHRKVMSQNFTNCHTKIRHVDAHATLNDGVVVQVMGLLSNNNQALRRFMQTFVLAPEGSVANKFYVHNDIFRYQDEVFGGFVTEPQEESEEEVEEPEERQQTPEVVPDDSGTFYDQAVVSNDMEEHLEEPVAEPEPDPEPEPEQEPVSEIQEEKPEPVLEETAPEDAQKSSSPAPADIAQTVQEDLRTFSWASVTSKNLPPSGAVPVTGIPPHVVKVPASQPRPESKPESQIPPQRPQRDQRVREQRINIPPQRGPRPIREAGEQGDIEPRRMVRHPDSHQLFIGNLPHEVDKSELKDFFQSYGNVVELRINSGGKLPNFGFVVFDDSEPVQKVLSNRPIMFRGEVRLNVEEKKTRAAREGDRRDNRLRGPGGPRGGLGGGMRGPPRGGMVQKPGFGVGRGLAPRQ
# Method: RNA Bind-n-Seq
# Molecule type: RNA
# Sample: in vitro
# Tested at: 1 µM
# Notes: whole 134-nt RNA, ends assumed
# Added: 150 mM KCl
# Reference: input library
# Reading: higher = stronger binding
# Shared flanks, not repeated: GGGAGUUCUACAGUCCGACGAUC … UGGAAUUCUCGGGUGUCAAGG
Strand,log2 enrichment
CAAGUCCUGUGCUACACAUCGUAUGUACCGAAUCGGAAAGGUUUUUUUGGAAAGGAAAGUAUUAUGUUACGCCGUUCGGAUCUGCACUUC,-0.368
CUGUGCUACACAUCGUAUGUACCGAAUCGGGGAAAAAAGGGAAAAAAGGGGAAAAAAGGGGAAAGUAUUAUGUUACGCCGUUCGGAUCUG,0.0665
CACAGACAACACGCACCCACACAGACACAGAGGUAAGGGGUUGGGAUGGGGACAGGGUGCACAGCAGGGCGGGGUAGGACCCCAGCCCCU,0.0536
UGGCCCUGGUGGCAUGCGGGGAGGAAGAGGUGGCCUCAUGGAUCGUGGUGGUCCCGGUGGAAUGUUCAGAGGUGGCCGUGGGGGAGACAG,1.87
AGUCCUGUGCUACACAUCGUAUGUACCGAAUCAAAUUUUUUUAAAUUUAAAUUUAAAAAAGUAUUAUGUUACGCCGUUCGGAUCUGCACU,-0.913
CACAGACAACACGAAACCACACAGACACAGAGGGAAGGGGUUGGGAUGGGGACAGGGUGCACAGCAGGGCGGGGUAGGACCCCAGCCCCU,-0.186
CAAGUCCUGUGCUACACAUCGUAUGUACCGAAUCGGGAAGGGGAAGGGGAAGGGGAAAGUAUUAUGUUACGCCGUUCGGAUCUGCACUUC,1.42
CUGUGCUACACAUCGUAUGUACCGAAUCGGGGAAAAAAAGGGGAAAAAAAGGGGUUUGGGGAAAGUAUUAUGUUACGCCGUUCGGAUCUG,0.609
UCCACCCCUUCUUCCUCCCUUUAACUUAUCCAUUCACUUAAAACAUUACCUGGUCAUCUGGUAAGCCCGGGACAGUAAGCCGAGUGGCUG,-0.172
CACAGACAACACGCACCCACACAGACACAGAGGGAAGGGGUUGGGAUGGGGACAGGGUGCACAGGAGGGCGGGGUAGGACCCCAGCCCCU,0.0466
UGGCCCUGUUGGCAUGCGGGGAGGAAGAGGUGGCCUCAUGGAUCGUGGUGGUCCCGGUGGAAUGUUCAGAGGUGGCCGUGGUGGAGACAG,0.901
GUCCUGUGCUACACAUCGUAUGUACCGAAUCGGGUUUUUGGGAAAGGGUUUUUUUGGGAAAGUAUUAUGUUACGCCGUUCGGAUCUGCAC,0.13
CAAGUCCUGUGCUACACAUCGUAUGUACCGAAUCGGGUGGGAGGGUUUUUUUGGGAAAGUAUUAUGUUACGCCGUUCGGAUCUGCACUUC,0.695
CAAGUCCUGUGCUACACAUCGUAUGUACCGAAUCGGUUUUGGUUUUGGUUUUGGGAAAGUAUUAUGUUACGCCGUUCGGAUCUGCACUUC,-0.283

# Set 3
# Target: RNA binding protein fox-1 homolog 2, RRM domain, GST-SBP tag (RBFOX2, Homo sapiens, UniProt O43251-10, residues 100-194)
# Method: RNA Bind-n-Seq
# Molecule type: RNA
# Sample: in vitro
# Tested at: 365 nM
# Notes: natural RNA segment, single round, ends assumed
# Reference: no-protein control
# Reading: higher = stronger binding
# Shared flanks, not repeated: GGGAGUUCUACAGUCCGACGAUC … UGGAAUUCUCGGGUGCCAA
# Residues (chain): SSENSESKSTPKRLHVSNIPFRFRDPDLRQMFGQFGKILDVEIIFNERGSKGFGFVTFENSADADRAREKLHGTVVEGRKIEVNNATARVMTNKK
Strand,RBNS enrichment (R)
AACAAACAAGAAAAAUAACACUAUUAAGGAAGUCACAAUUGGCCAUGGUUUUUGAUCCCAGCUCGCCCACAGCCCUGGCCCCACCUCACCCCAUAGUGGGGGACUGGAGU,0.461
GGAUUACAGGUGUGAGCCACUGUGCCCAGCGUGAUUUUUUUUUUUUUUUAAAGCAAACUUGUCCUUUGGUUUUGCAGAACAGGCCUGCUCCCUCUCAUCUAGCCCAUCAU,0.641
GAGGUGUACCUAAGAAAUUAGCAAGAAUGGAUCUGCGUCUCAGCUCAGCAGAACUAUAGCCAAUGUUUUGUUUUGUUUUCCUGAAUGCUAUCUUAUUUUUUUUCUUAUAG,1.55
AUCUGUGAGAUGCUGUGGCCCAGCUGACGAGCCCUAACGUCCCCAGAACCGAGUGCCUAUGAGGACAGUGUCCGCCCUGCCCUCCGCAACGUGCAGUCCCUGGGCACGGC,0.303
CAGACUCCACACGUGGAAACAAGACUGGGUUUCUCAGCUUCCGUGUCAAGUCAGCCAGAGGAAAGAGGUCGAGUUGACAGCAGCAGGCACUGCCCUUCCUAGUUGGUGGC,0.494
CCCUUUCUCUUCACUGUCAUGGUGCGAGAAAAGCAUGCCAUGUCUACGAGUAGGAUCUCUUCACGGAGGACCUGCAGCUUCAUCUUCUGGAUUGGAGAUUAUUCUUGGUU,1.6
AAGAGGUUUCAAGGAACUGUUUCGCUUGAUCUGCACCCUGCUGCUGUGUUCUGUGCUUUACACUGACAGAACCUGGGUUUUCAGUUGGCAAUCAUGGAAAGCAUGUUGUG,0.957
CCUGUUGCAUUAAGACUUGAAAGACUUGUAGAUGUGUGAUGUUCAGGCACAGGAUGCUGAAAGCUAUGUUACUAUUCUUAGUUUGUAAAUUGUCCUUUUGAUACCAUCAU,0.79
UUCUCACAAUGAUGCAGAUUAGGAAAAUUGAAGUAUUCAGGAAACAGGGGUGGUUGCUAAGGUUCCGUACCUGCUCUUUAUAAAUUUAUAGUGGCUUUAUCCUGACAUAG,0.563
CCCCUCCUCCUAAAGUCAAGGUGGGGUGGACAAUGACUUCCACAUCCCUCAGGGCAUAGAGUCCUUGCCACCACCUGUCCCCAGAUGCCAGUGUGUGGCACCCCUCCCCC,0.306
UGCAUUGGGGCUGCCUUUCUGUUUGGCUUAGGAACUUCUGUGCUUCUUGUGGCUCCACUCGCGAGGCAGCUCGGAGGUGUGGACUCCGAUUGGGCUGCAGGCAGCUCUGG,1
GCAGGCAGGGCAAAGGUCAAGACUGUGGUAUUGGGGUCUUUUGGCUCUGAAGGAUCCUGGAACCACUGAUUUUGGUUUAUUCCCUCCAGGGUCUAAAGAGAACAAGAGGU,0.472

# Set 4
# Target: Sal-like protein 4, full length isoform B (SALL4, Homo sapiens, UniProt Q9UJQ4-2, residues 1-616)
# Method: universal PBM
# Molecule type: double-stranded DNA, one strand shown
# Sample: in vitro
# Tested at: not given
# Notes: 8-mer, flanks averaged, mean of replicates
# Reading: higher = stronger binding
# Target sequence (chain): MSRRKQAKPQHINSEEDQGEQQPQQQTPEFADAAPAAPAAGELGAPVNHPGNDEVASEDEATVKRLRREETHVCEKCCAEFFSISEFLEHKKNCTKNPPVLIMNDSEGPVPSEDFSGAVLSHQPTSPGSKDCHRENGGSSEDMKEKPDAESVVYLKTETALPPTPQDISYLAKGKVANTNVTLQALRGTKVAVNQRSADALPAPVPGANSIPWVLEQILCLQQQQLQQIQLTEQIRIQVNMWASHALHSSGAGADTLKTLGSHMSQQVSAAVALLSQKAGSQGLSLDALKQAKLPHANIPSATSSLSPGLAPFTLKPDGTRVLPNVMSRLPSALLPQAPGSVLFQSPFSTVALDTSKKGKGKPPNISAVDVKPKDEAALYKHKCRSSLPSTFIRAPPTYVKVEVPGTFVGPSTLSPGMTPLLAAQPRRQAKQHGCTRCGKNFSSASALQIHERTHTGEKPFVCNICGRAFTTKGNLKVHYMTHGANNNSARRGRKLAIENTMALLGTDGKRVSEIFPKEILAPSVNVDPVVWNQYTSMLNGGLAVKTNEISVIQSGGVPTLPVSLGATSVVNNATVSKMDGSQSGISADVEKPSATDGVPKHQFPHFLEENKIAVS
Strand,E-score
GCCCGGAA,-0.297
TCGCAGAA,0.0194
AACATAAA,0.307
AGCTCCCC,-0.288
CTACTGAG,-0.0379
CACCCTTC,-0.131
CTAATAAG,0.222
AATGAGAG,0.132
ACTTGTAA,0.237
CGCATAAA,0.246
AACCCACA,0.0989
CCCGGCCC,-0.322
CTCCGGTA,-0.1
CAGATCAA,-0.121
AAGGTCGA,0.0492
ATACTTCG,0.171
ATATCGAG,0.134
GCGTCGCA,-0.13
AGCTAGGC,-0.214
CTCCCATA,0.0785
CACTCGTC,-0.134

# Set 5
# Target: Prothrombin, mature alpha-thrombin (F2, Homo sapiens, UniProt P00734)
# Method: aptamer microarray, sandwich
# Molecule type: DNA with 2'F-ANA
# Sample: in vitro
# Tested at: 200 nM
# Notes: whole 15-mer aptamer, many near background
# Added: Cy3 exosite-II aptamer, 400 nM
# Reading: higher = stronger binding
# Strand: GGTTGGTGTGGTTGG
Modification,mean fluorescence intensity [a.u.]
2'F-ANA at 1 10 11 12 13 14 15,51.3
2'F-ANA at 2 4 5 6 7 8 9 10 13,48.4
2'F-ANA at 1 2 4 6 8 9 10 11 13 14,217
2'F-ANA at 1 2 7 9 10 12 13 14,46.1
2'F-ANA at 1 2 3 12 14 15,93.1
2'F-ANA at 4 5 7 8 9 11 15,57.6
2'F-ANA at 1 3 4 6 11 13 14 15,60
2'F-ANA at 1 2 3 4 6 10 11 12 14 15,50.7
2'F-ANA at 2 4 5 6 7 8 11 12,121
2'F-ANA at 3 5 7 9 11 12 13 15,144
2'F-ANA at 6 8 9 11 13 14 15,145
2'F-ANA at 2 4 7 10 11 15,85.9
2'F-ANA at 2 3 5 6 12 13 15,148
2'F-ANA at 1 2 3 4 6 10 11 13 14 15,63.7
2'F-ANA at 1 3 5 6 9 10 12 13 14 15,48.4
2'F-ANA at 3 5 8 10 12,70.3
2'F-ANA at 1 2 3 5 6 7 8 9 12 13 14 15,51.6
2'F-ANA at 5 6,142
2'F-ANA at 1 3 6 7 9 11 12 13 14 15,92.9
2'F-ANA at 2 4 6 8 11 12 14,113

# Some of these lines once more (set 4):
Strand,E-score
ACTTGTAA,0.237
AATGAGAG,0.132
CTCCGGTA,-0.1
AAGGTCGA,0.0492
AACATAAA,0.307
AGCTCCCC,-0.288
